Results from different studies.
Compare with care: the assays were run in different laboratories.
CDK7: Cyclin-dependent kinase 7 (CDK7, Homo sapiens, UniProt P50613)
Sequence of UniProt P50613 (whole entry, looked up): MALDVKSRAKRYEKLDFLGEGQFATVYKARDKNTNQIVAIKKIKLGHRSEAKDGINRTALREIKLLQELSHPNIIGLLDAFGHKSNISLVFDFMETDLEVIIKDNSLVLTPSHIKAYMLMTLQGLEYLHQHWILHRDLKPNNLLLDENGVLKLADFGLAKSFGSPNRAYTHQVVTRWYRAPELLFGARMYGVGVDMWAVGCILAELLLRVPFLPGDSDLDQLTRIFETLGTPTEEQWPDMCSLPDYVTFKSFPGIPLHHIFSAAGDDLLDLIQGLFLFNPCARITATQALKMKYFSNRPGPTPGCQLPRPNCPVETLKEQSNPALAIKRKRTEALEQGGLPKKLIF

| SMILES | target | test | test system | conditions | how to read | measurement | value |
| --- | --- | --- | --- | --- | --- | --- | --- |
| CC(C)[C@H]1NC(=O)C[C@H]2/C=C/CCSSC[C@@H](NC1=O)C(=O)N[C@H](Cc1cccc3ccccc13)C(=O)NCC(=O)O2 | Cyclin-dependent kinase 7, with cyclin H (CDK7, Homo sapiens, UniProt P50613) | enzyme activity, inhibitor | – | 10 µM | – | inhibition | 16.7% |
| C[C@H](NCc1ccc(-c2ccc(C(F)(F)F)cc2)cc1)C(N)=O | CDK7 | cell-free assay, competition with immobilised ligand | – | 1 µM | – | inhibition | 3% |
| CCOC(=O)[C@@H]1Cc2c(cc([N+](=O)[O-])cc2[N+](=O)[O-])[C@H](O)[C@]12C(=O)Nc1ccc(Br)cc12 | CDK7 | binding, competition with immobilised ligand | – | 0.1 µM | – | remaining binding | 58% |
| C=CC(=O)Nc1cc(-c2nn(C3CCC(N4CCN(C(C)=O)CC4)CC3)c3ncnc(N)c23)ccc1Oc1ccccc1 (stereo not drawn) | CDK7 | inhibitor, KiNativ profiling | biochemical | 2 µM | – | inhibition | -7% |
| O=C1NC(=O)c2c1c1cc(F)c[n+]3c1c1c2c2cc(O)ccc2[n]1[Ru-4]312([N]=C=S)[S+]3CC[S+]1CC[S+]2CC3 (stereo not drawn) | CDK7 | enzyme activity | – | 100 nM, human enzyme, together with: 10 µM ATP | relative to: untreated | remaining activity | 25% |
| CN(C)[C@H]1C[C@@]23CC[C@@]4(O2)C(=CC[C@]2(C)[C@@H](c5ccc6ccncc6c5)CC[C@H]24)C=C3[C@@H](O)[C@@H]1O | CDK7 | ATP probe labelling, inhibitor, KiNativ profiling | – | 0.1 µM | – | inhibition | 4.8% |
| CS(C)(=O)=Nc1ccc(-c2ccc(-c3nc4cc(O[C@@H]5CO[C@H]6[C@@H]5OC[C@H]6O)[nH]c4cc3F)cc2)cc1 | CDK7 | enzyme activity, inhibitor | – | 10 µM | – | inhibition | 0% |
| Nc1ccc(/C=C/C(=O)N2CCc3c(oc4c(-c5ccc(F)cc5)cc(-c5ccc(C(=O)N6CCC(F)(F)CC6)cn5)cc34)C2)cn1 | CDK7 | binding, competition with immobilised ligand | – | 1 µM | – | remaining binding | 100% |
| CCN1CCN(Cc2ccc(C(=O)Nc3ccc(C)c(NCc4cnc5[nH]ccc5c4OC)c3)cc2C(F)(F)F)CC1 | CDK7 | binding, competition with immobilised ligand | – | 1 µM | – | remaining binding | 97% |

Repeated from above:
| SMILES | target | test | test system | conditions | how to read | measurement | value |
| --- | --- | --- | --- | --- | --- | --- | --- |
| Nc1ccc(/C=C/C(=O)N2CCc3c(oc4c(-c5ccc(F)cc5)cc(-c5ccc(C(=O)N6CCC(F)(F)CC6)cn5)cc34)C2)cn1 | CDK7 | binding, competition with immobilised ligand | – | 1 µM | – | remaining binding | 100% |
